Published values gathered from unrelated publications.
Every numbered part comes from another study and shows a few of its results, in no order. Changes are numbered by the printed parent chain.

Sample 1
Target: RING finger protein unkempt homolog, zinc fingers 1-6, GST-SBP tag (UNK, Homo sapiens, UniProt Q9C0B0, residues 30-357)
UniProt Q9C0B0, sequence (30-357, looked up): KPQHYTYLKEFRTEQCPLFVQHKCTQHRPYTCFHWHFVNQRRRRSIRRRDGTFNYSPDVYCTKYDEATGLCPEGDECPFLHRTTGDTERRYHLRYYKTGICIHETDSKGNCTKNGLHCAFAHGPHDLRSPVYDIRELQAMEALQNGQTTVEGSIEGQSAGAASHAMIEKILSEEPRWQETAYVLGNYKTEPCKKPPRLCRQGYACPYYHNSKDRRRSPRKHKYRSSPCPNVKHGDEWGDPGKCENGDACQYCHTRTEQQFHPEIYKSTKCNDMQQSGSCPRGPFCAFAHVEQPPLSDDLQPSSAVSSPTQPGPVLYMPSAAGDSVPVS
Technique: RNA Bind-n-Seq
Molecule type: RNA
Medium: in vitro
Tested at: not given
Setting: RNA with constant flanks, ends assumed
Reference: input RNA pool
Direction: higher = stronger binding
All sequences stand within: GGGAGUUCUACAGUCCGACGAUC … CAACAGAGGAUUGAGCAUCA
| Oligonucleotide | bound/input enrichment |
| --- | --- |
| CACCUGCAGGAUAUUAAAGUGAAAUUUUCUGACCCUGGACAGCCUAUGUCUUUUGUGUCCGAGUUCCACUUUGAACCCAACGACUACUUUACCAACUCAGUCCUGACAAAAACCUACAAG | 0.159 ratio |
| CUGCAGAGCAAACCACCUCCUGGGAUUGGUGAAAGUUUGGGUGUAAAUGUGACUGAGAAAACCGAAAUUCAUCUUGAAGAACCAGCCCCUUCAGAUAAACAGCUCUCUAAUGAUGCAGCG | 0.169 ratio |
| GAGUUAGACCCCAAGUUGGCUCCCUGGAUCCAGAGACUGAAUAGUUUUGGCUUGGAUGCCACCGGACCCUUUUUCACUCGGUACGGAGCAUCUCUCAAGGAGCUUGAUUUCCACGUCGUG | 0.121 ratio |
| UUUUUGAAGGGUGUGAUGCUUGGAAGCAUUUUCUGUGCUUUGAUCACUAUGCUAGGACACAUCCGGAUUGGUCAUGGAAAUAGAAUGCACCACCAUGAGCAUCAUCACCUACAAGCUCCU | 0.137 ratio |
| GGUGAGAGCAUCAUGGUGGAACUUGCUGCUGGGCCUUUCGAGAAUGCUGAAAAGUUGCCAGCCGUUAUCAGGGUGCCAAAACUGAUGGGUUACUCAGUCAUGAGUGUAUGCUCCGUGCCU | 0.104 ratio |
| GAACCACUUGAAGAAAAUUGCGCUAAAGCCCUGACUUUAAGGAUACAUGAUUCUUUGAAUAACCGCCUUCCAAUUGGCCUUGUGCCUACUAAUUCAACAAACACUGUCAUGGACCAAAAA | 0.235 ratio |
| AAAUUCAAAGGCCCCUUCACAGAUGUAGUCACUACAAAUCUUAAAUUGCAAAAUCCAUCGGACCGAAAAGUGUGUUUCAAAGUGAAGACUACAGCACCUCGCCGGUACUGUGUGCGGCCC | 0.358 ratio |
| GAAACUAUUCCUAAAGAGGAGAAAGCUGAAAAGGAAGCUCGGAGAUCAUCUCUUGAGAAACACCGAAAAGAAAAGCCUUUUAAAACCGGGAGAGGCAGAAUUUCCACUCCUGAAAGAAAA | 0.136 ratio |

Sample 2
Target: Histone acetyltransferase KAT6A, winged helix 2, GST fusion (KAT6A, Homo sapiens, UniProt Q92794, residues 85-181)
Technique: protein binding microarray
Molecule type: double-stranded DNA, one strand shown
Medium: in vitro
Tested at: not given
Setting: 8-mer, flanks averaged, mean of 2 arrays, mostly near background
Reference: not given
Direction: higher = stronger binding
Construct (chain): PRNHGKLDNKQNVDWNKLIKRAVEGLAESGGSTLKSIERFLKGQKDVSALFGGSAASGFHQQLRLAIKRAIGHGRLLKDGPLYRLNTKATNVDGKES
| Oligonucleotide | E-score |
| --- | --- |
| CTGCAGTA | -0.125 |
| CAAACTCG | 0.0297 |
| AAACGTGA | -0.0627 |
| CCTCGGCG | 0.227 |
| CGATCTCC | 0.0552 |
| CGTAAGCC | -0.0173 |
| GAATAGAC | -0.117 |
| CAACCCTA | -0.075 |

Sample 3
Target: MAFF, bZIP domain (human)
Technique: DHFR protein complementation
Medium: yeast
Setting: single substitutions, most at no-binding floor
Reference: wild-type JUN-FOS pair
Direction: higher = stronger binding
Starting sequence: JUN, bZIP domain (human); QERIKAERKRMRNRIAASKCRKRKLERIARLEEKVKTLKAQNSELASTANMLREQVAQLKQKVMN; partner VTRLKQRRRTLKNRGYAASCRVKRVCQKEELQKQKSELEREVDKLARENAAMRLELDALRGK
| Variant | binding fitness |
| --- | --- |
| Q55M | -1.53 natural log |
| A49S | -1.48 natural log |
| A49E | -1.42 natural log |
| E33A | -1.35 natural log |
| R30G | -1.39 natural log |
| T37S | -1.27 natural log |
| A46H | -1.51 natural log |
| V56E | -1.39 natural log |

Mixed results
Starting sequence: viral docking peptide; KGVKRKLFAEDSS; partner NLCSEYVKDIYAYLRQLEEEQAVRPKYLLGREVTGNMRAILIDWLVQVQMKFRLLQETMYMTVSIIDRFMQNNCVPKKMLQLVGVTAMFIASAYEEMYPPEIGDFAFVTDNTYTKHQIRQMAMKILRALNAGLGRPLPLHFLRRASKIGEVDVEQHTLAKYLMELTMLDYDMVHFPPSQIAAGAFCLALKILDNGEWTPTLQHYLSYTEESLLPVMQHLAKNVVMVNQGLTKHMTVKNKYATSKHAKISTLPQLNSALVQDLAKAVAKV
| Variant | target | assay | system | setting | scale | endpoint | result |
| --- | --- | --- | --- | --- | --- | --- | --- |
| F8E | CCNB1, cyclin fold, Cln2 fusion (human) | yeast growth competition, sequencing | yeast | strong parent motif | reference: not given, higher = stronger binding | normalised enrichment score | 0.591 |

Repeated from above (sample 2):
| Oligonucleotide | E-score |
| --- | --- |
| CGTAAGCC | -0.0173 |
| AAACGTGA | -0.0627 |
